Experimental data gathered from unrelated publications.
Lines come from different studies, so protocols differ.
Technique: steady-state kinetics
B1: Nudt8 (Mus musculus, UniProt Q9CR24); chain MLPDGLSAEDEQRCRQLLARTTARLRSRPAAAAVLVPLCLVRGVPALLYTLRSSRLVGRHKGEVSFPGGKCDPDDQDVIHTALRETQEELGLEVPKEHVWGVLQPVYDREKATIVPVLANVGPLDLQSLRPNLEEVDEVFEMSLAHLLQTQNQGYTHFCQGGHFSYTLPVFLHGPHRVWGLTAVITELTLKLLAPGFYQPSLAVPELPRG
B2: CMBL (Homo sapiens, UniProt Q96DG6); chain MANEAYPCPCDIGHRLEYGGLGREVQVEHIKAYVTKSPVDAGKAVIVIQDIFGWQLPNTRYIADMISGNGYTTIVPDFFVGQEPWDPSGDWSIFPEWLKTRNAQKIDREISAILKYLKQQCHAQKIGIVGFCWGGTAVHHLMMKYSEFRAGVSVYGIVKDSEDIYNLKNPTLFIFAENDVVIPLKDVSLLTQKLKEHCKVEYQIKTFSGQTHGFVHRKREDCSPADKPYIDEARRNLIEWLNKYM
B3: enzyme (Oryza sativa, UniProt Q6Z955); chain MMLAYMDHAAAAAEPDAGAEPAVAAVDAAEFAAAMDFGGLVSARPAAVVRPASSDDVASAIRAAARTAHLTVAARGNGHSVAGQAMARGGLVLDMRALPRRMQLVVAPSGEKFADVPGGALWEEVLHWAVSKHGLAPASWTDYLRLTVGGTLSNGGVSGQSFRYGPQVSNVAQLEVVTGDGECHVCSRSADPDLFFAVLGGLGQFGVITRARIPLSPAPQTVRWTRVVYASFADYAADAEWLVTRPPHEAFDYVEGFAFVRSDDPVNGWPTVPIPDGAHFDASLLPANAGPVLYCLEVALYQRGGGGDGGGDDMDKRVGEMMRQLKYVRGLEFAAGVGYVDFLSRVNRVEDEARRNGSWAAPHPWLNLFISSRDIAAFDRAVLNGMLADGVDGPMLIYPMLKSKWDPATSVALPNGEIFYLVALLRFCRPYPGGGPPVDELVAQNNAIIDACRSNGYDYKIYFPSYHAQSDWSRHFGAKWSRFVDRKARYDPLAILAPGQNIFARTPSSVAAAAAVIV
B4: LdmS (Staphylococcus aureus, UniProt Q2FWC5); chain MTNNGNEPNLTLSDLYDKDVVYTSRPSYISNPWLKPDEHQSNFLTGRELLIANQLPVIVHEASATDKLHQLFQVIGKEVPNSIYTFNNQQSYENLIKQLAHKENKKIYFQYIHDETILNQQYYALDKTLFVALNNKARIPEWTNGKFLPKRKVVKIEQFENEIKNWEFPLVIKPGDDLPTAGGYGVMICYHDADLQKAITRIKEATAETNSLIIEQKIEEKANYCVQFAYSESLGIQYLGAATQLTDKYGFYNGNENTTNVPEHVIEAGRQIMENGVNQGFFGVAGFDLLVDEDDNVYAIDLNFRQNGSTSMLLLANELNSGYQKFYSYHSKGDNTHFFNTILKYVKEGSLYPLSYYDGDWYGEDKVKSRFGCIWHGDSKETVLENERAFLAELEHY
B5: cyc1 F95H (Streptomyces coelicolor, UniProt Q9K499); chain MHAFPHGTTATPTAIAVPPSLRLPVIEAAFPRQLHPYWPKLQETTRTWLLEKRLMPADKVEEYADGLCYTDLMAGYYLGAPDEVLQAIADYSAWHFVWDDRHDRDIVHGRAGAWRRLRGLLHTALDSPGDHLHHEDTLVAGFADSVRRLYAFLPATWNARFARHFHTVIEAYDREFHNRTRGIVPGVEEYLELRRLTFAHWIWTDLLEPSSGCELPDAVRKHPAYRRAALLSQEFAAWYNDLCSLPKEIAGDEVHNLGISLITHHSLTLEEAIGEVRRRVEECITEFLAVERDALRFADELADGTVRGKELSGAVRANVGNMRNWFSSVYWFHHESGRYMVDSWDDRSTPPYVNNEAAGEK
B6: CPT1 (Solanum lycopersicum, UniProt C1K5M2); chain SLNLQTEKLCYEDNDNDLDEELMPKHIALIMDGNRRWAKDKGLEVYEGHKHIIPKLKEICDISSKLGIQIITAFAFSTENWKRSKEEVDFLLQMFEEIYDEFSRSGVRVSIIGCKSDLPMTLQKCIALTEETTKGNKGLHLVIALNYGGYYDILQATKSIVNKAMNGLLDVEDINKNLFDQELESKCPNPDLLIRTGGEQRVSNFLLWQLAYTEFYFTNTLFPDFGEEDLKEAIMNFQQRHRRFGGHTY
Chain of UniProt A1ZAW0 (whole entry, looked up): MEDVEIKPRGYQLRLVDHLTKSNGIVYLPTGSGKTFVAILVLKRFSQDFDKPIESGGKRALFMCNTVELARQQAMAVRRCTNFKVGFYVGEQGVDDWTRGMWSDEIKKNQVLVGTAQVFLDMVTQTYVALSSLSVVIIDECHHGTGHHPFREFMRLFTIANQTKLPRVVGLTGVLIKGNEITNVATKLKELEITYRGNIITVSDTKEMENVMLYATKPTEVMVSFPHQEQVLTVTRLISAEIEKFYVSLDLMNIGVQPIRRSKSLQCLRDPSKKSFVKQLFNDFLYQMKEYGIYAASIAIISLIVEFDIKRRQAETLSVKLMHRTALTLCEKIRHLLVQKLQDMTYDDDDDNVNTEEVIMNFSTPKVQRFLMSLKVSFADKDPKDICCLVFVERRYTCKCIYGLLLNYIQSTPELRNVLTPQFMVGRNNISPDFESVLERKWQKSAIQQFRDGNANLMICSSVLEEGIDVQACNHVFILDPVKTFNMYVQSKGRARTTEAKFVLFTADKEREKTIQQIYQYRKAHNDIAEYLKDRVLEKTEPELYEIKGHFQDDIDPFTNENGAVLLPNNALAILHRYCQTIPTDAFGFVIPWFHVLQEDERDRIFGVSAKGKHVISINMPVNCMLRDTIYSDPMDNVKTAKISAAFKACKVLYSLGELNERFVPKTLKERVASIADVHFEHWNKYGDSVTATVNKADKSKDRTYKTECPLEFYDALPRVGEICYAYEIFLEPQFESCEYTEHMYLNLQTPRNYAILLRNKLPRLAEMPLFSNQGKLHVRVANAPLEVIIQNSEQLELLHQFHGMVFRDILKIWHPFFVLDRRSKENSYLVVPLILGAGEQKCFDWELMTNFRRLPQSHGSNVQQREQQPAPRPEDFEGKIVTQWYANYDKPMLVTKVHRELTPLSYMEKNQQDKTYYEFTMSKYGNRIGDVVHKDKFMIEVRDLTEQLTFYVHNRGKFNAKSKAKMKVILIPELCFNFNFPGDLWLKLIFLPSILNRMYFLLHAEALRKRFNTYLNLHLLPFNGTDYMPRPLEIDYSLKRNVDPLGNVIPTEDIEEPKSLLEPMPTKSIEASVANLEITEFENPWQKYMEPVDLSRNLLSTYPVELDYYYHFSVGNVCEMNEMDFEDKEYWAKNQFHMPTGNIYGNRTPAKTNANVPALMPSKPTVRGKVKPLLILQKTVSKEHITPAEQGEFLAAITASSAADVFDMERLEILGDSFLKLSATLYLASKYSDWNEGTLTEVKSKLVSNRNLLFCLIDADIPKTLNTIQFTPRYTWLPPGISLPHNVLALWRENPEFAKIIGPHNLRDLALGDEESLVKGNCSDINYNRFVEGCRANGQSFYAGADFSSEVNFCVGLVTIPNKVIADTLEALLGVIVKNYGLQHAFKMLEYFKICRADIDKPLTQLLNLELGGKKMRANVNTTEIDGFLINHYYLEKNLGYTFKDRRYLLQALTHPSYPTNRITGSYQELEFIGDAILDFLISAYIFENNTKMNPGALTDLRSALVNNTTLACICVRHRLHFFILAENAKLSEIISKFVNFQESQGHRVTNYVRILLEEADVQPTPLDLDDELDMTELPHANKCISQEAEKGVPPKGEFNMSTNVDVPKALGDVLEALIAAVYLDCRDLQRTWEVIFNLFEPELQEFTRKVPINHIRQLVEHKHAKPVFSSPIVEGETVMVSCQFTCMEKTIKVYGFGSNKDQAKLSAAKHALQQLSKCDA
Chain of UniProt Q29437 (whole entry, looked up): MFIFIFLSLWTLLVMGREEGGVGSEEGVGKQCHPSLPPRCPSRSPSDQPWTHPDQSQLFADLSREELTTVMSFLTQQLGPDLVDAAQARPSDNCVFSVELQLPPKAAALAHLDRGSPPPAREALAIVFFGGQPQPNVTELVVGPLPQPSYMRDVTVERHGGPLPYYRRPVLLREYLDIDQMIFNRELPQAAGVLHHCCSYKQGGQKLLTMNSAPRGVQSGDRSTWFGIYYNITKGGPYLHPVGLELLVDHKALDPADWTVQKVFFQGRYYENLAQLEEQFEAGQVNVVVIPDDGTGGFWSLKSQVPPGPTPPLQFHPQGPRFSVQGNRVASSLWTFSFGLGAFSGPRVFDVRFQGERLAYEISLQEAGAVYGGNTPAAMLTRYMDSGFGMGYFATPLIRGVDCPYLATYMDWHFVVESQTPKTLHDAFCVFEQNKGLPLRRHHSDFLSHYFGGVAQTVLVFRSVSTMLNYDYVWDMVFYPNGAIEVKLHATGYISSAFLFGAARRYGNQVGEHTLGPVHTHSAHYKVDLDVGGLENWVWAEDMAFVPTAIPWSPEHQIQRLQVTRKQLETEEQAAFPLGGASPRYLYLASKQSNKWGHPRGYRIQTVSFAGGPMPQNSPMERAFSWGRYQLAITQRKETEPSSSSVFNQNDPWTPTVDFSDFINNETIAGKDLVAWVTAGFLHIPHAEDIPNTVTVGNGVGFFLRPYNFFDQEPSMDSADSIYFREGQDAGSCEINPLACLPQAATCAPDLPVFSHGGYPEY
Chain of UniProt A8M783 (whole entry, looked up): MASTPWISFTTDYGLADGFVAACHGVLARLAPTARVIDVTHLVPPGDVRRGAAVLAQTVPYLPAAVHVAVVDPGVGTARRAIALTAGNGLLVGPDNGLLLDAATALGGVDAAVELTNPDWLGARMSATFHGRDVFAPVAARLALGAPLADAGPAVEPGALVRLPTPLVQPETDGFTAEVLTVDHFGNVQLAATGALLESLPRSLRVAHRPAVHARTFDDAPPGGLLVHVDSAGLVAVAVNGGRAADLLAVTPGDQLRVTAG
Chain of UniProt P19337 (whole entry, looked up): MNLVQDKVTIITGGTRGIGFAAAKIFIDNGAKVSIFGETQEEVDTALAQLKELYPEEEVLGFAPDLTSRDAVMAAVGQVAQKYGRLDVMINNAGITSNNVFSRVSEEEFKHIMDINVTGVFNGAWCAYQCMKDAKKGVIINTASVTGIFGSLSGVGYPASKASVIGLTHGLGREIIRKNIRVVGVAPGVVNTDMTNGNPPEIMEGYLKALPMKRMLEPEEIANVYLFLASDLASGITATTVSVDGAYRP

| Substance | substrate | matrix | pH | temperature | setting | together with | Km [µM] |
| --- | --- | --- | --- | --- | --- | --- | --- |
| B1 (Nudt8) | CCC(=O)SCCNC(=O)CCNC(=O)[C@H](O)C(C)(C)COP(=O)(O)OP(=O)(O)OC[C@H]1O[C@@H](n2cnc3c(N)ncnc32)[C@H](O)[C@@H]1OP(=O)(O)O |  | pH 8.5 |  |  | 2 mM Mn2+ | 318 |
| B2 (CMBL) | Cc1oc(=O)oc1COC(=O)[C@@H]1N2C(=O)[C@@H](NC(=O)[C@H](N)c3ccccc3)[C@H]2SC1(C)C | lysate | pH 7.4 | 37 °C | not purified |  | 63.4 |
| alanine aminopeptidase (Neisseria meningitidis, UniProt Q9JYV4) | NC(=O)Cc1cc(=O)oc2cc(NC(=O)[C@@H](N)CCC(=O)OCc3ccccc3)ccc12 |  | pH 7.5 | 37 °C |  |  | 50.6 |
| B3 (enzyme) | C/C(=C\CNc1ncnc2[nH]cnc12)CO |  | pH 9.5 | 40 °C | apparent |  | 36.1 |
| enzyme (Thermus thermophilus, UniProt Q5SJ64) | Nc1nc2c([nH]c(=O)n2[C@H]2C[C@H](O)[C@@H](COP(=O)(O)OP(=O)(O)OP(=O)(O)O)O2)c(=O)[nH]1 |  | pH 7.5 | 37 °C |  |  | 0.126 |
| B4 (LdmS) | Nc1ncnc2c1ncn2[C@@H]1O[C@H](COP(=O)(O)OP(=O)(O)OP(=O)(O)O)[C@@H](O)[C@H]1O |  | pH 8 | 37 °C |  | L-Asp 50 mM, L-Met 10 mM, MgCl2 5 mM | 310 |
| protein (Actinidia chinensis, UniProt H9M5U5) | CC(C)=CCC/C(C)=C/COP(=O)(O)OP(=O)(O)O |  | pH 7.5 | room temperature | labelled compound | MgCl2 20 mM | 1.89 |
| Dcr-2 (Drosophila melanogaster, UniProt A1ZAW0) | Nc1ncnc2c1ncn2[C@@H]1O[C@H](COP(=O)(O)OP(=O)(O)OP(=O)(O)O)[C@@H](O)[C@H]1O |  | pH 7.4 | 25 °C |  | dsRNA, magnesium acetate 3.3 mM | 14 |
| protein (Salinispora arenicola, UniProt A8M783) | I |  | pH 7.9 | 37 °C | apparent | SAM | 20000 |
| BaiA2 (Clostridium scindens, UniProt P19337) | C[C@H](CCC(=O)SCCNC(=O)CCNC(=O)[C@H](O)C(C)(C)COP(=O)(O)OP(=O)(O)OC[C@H]1O[C@@H](n2cnc3c(N)ncnc32)[C@H](O)[C@@H]1OP(=O)(O)O)[C@H]1CC[C@H]2[C@@H]3CC[C@@H]4CC(=O)CC[C@]4(C)[C@H]3C[C@H](O)[C@]12C |  | pH 8.7 | 37 °C |  | NADH | 1.5 |
| Plasma amine oxidase (Bos taurus, UniProt Q29437) | NCCOc1ccc2cc(CN)ccc2c1 |  | pH 7.2 | 30 °C |  |  | 0.122 |
| B5 (cyc1 F95H) | CC(C)=CCC/C(C)=C/CC/C(C)=C/CO[P@@](=O)(O)OP(=O)(O)O |  | pH 6.5 | 30 °C |  | MgCl2 10 mM | 0.65 |
| B6 (CPT1) | C=C(C)CCO[P@@](=O)(O)OP(=O)(O)O |  |  |  |  |  | 273 |
